# Assay results collected from several papers.
# A part holds a random share of what one study measured.

# Study 1 — method: RNA Bind-n-Seq; form: RNA; matrix: in vitro; tested at: 200 nM; setting: whole 134-nt RNA, ends assumed; together with: 150 mM LiCl; relative to: input library; reading: higher = stronger binding; all molecules: 7-deaza-guanosine replaces G
# Target: Fragile X messenger ribonucleoprotein 1, C-terminal low-complexity region (Fmr1, Mus musculus, UniProt P35922)
# Constant ends, left off below: GGGAGUUCUACAGUCCGACGAUC … UGGAAUUCUCGGGUGUCAAGG
Strand,log2 enrichment
CACAGACAACACGCACCCACACAGACACAGAGGGAAGGGGUUGGGAUGGGGACAGGGUGCACAGCAAAGCGGGGUAGGACCCCAGCCCCU,0.241
UCAAGUCCUGUGCUACACAUCGUAUGUACCGAAUCGGGAAGGGGAAGGAAGGGGAAAGUAUUAUGUUACGCCGUUCGGAUCUGCACUUCC,-0.765
UGGCCCUGGUGGCAUGCGGGGAGGAAGAGGUGGCCUCAUGGAUCGUGGUGGUCCCUGUGGAAUGUUCAGAGGUGGCCGUGGUGGAGACAG,0.0471
CACAGACAACACGCACCCACACAGACACAGAGGGAAGGGGUUGGGAUGGGGACAGGGUGCACAGCAGGGCUGGGUAGGACCCCAGCCCCU,0.473
UCCCCCCUAUUGGAAGUAAAGGGGAACAUAGAACUGAAGAGACCUCUGAUUAAGGCCCCUUCCCAGCUGCCUCUCUCAGGAAGCAGACUC,0.784
UGCUCUCCGUGCCACAUGCGCCCGCAGGUUACGCCAAGGAGGCCCUGAAUCUGGCGCAGAUGCAGGAGCAGACGCUGCAGUUGGAGCAAC,-4.18
UAACUUUAGAAGAGGAUCUGAUGGAUAUGGCAGUGGACGUGGAUUUGGGGAUGGCUAUAAUGGGUAUGGAGGAGGACCUGGAGGUGGCAA,0.232
CUCAAGUCCUGUGCUACACAUCGUAUGUACCGAAUCGGAAAAAGGUGGAAAGGAAAGUAUUAUGUUACGCCGUUCGGAUCUGCACUUCCA,0.0528
UCAAGUCCUGUGCUACACAUCGUAUGUACCGAAUCGGGAAGGGGAAGGGGAAGGGAAAGUAUUAUGUUACGCCGUUCGGAUCUGCACUUC,-0.826
GUCCUGUGCUACACAUCGUAUGUACCGAAUCAAAUUUAAAUUUUUUUAAACCCCCAAAAAAGUAUUAUGUUACGCCGUUCGGAUCUGCAC,-0.0506
GUCCUGUGCUACACAUCGUAUGUACCGAAUCGGGGAAAAAGGGGUUUUUGGGGUGGGGAAAGUAUUAUGUUACGCCGUUCGGAUCUGCAC,-1.22

# Study 2 — method: protein-binding microarray; form: double-stranded DNA, one strand shown; matrix: in vitro; tested at: 2200 nM top; setting: 60-bp whole probe; together with: salmon DNA 0.4 mg/ml; relative to: random background probes; reading: higher = stronger binding; constant ends, left off below: GCCTAGCAC … GTCTTGATTCGCTTGACGCTGCTG
# Target: Interferon regulatory factor 7, full length, phosphomimetic (IRF7, Homo sapiens, UniProt Q92985, residues 1-503, S471D/S472D/S475D/S476D/S477D/S483D/S484D/S487D)
# Target sequence (chain): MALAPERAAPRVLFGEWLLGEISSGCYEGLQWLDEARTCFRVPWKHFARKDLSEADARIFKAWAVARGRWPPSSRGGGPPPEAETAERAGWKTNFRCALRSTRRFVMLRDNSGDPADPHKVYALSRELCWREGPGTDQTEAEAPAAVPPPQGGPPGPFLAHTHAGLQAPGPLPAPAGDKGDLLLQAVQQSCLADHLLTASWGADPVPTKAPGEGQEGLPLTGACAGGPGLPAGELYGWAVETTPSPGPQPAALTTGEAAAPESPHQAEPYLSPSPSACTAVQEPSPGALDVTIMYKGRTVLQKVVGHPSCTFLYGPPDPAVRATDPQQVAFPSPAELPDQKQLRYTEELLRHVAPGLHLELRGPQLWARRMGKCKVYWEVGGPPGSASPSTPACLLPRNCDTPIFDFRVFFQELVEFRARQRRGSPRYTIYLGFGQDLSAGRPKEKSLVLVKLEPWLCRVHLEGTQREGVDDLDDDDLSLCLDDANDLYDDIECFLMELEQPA
Strand,fitted relative affinity [z-score]
TTAGGATTCCTTTCCCTTTAGTGCTAG,2.92
GACGAACTGGGGACTGGAGACGTGCTA,-0.291
TTAGAACTGAGACTTGATTAGTGCTAG,-0.919
AACTTGGCAGGAGCGAATGGGTGCTAG,-0.495
TTAGAACAGGGGTATCGATTAGTGCTA,0.0326
GACGGTTTCGGGACCGGGGACGTGCTA,3.3
TTAGATCGCAGACTGGATTAGTGCTAG,-0.403
TTAGATTTCAGTATCGATTGGTGCTAG,1.14
TTAGGTTTCCAACTGCTTTAGTGCTAG,1.01
CGTAAGCAAAAATGATTGGTGTGCTAG,-0.431
GACGATTTCGGGTTTCGAGGCGTGCTA,4.94
GACGGTTTCAACTATCGGGACGTGCTA,0.792
GACGGTTTCCTTATCCTGAGGTGCTAG,2.61
GACCATCTCAGTCTCGAGACGTGCTAG,0.487
GACGGTATGGGGTATCGGGACGTGCTA,-0.442
TCATGTCTGTGTCACAGACTGTGCTAG,0.816
GACGGTATCGGTCTCAGGACGTGCTAG,0.287
TTGGATCTCAGTCTCGATTAGTGCTAG,0.753
GACGGTATCGTACTGCTGACGTGCTAG,0.368
TTAGGTCTCGGACTCGGTTAGTGCTAG,0.427
TCAACTGTCTGTTTCCTACTGTGCTAG,2
CCGGGTTTCACCATGTTGGCGTGCTAG,1.42
TTTGCTTTACTGATGGCCCTGTGCTAG,1.05
TCAAGGATGGTTTTCAGACTGTGCTAG,-0.322
GACGGTATCGACTTTCGAGACGTGCTA,2.51

# Study 3 — method: RNA Bind-n-Seq; form: RNA; matrix: in vitro; tested at: not given; relative to: input RNA pool; reading: higher = stronger binding
# Target: RING finger protein unkempt homolog, zinc fingers 1-6, GST-SBP tag (UNK, Homo sapiens, UniProt Q9C0B0, residues 30-357)
# Setting: RNA with constant flanks, human and mouse sites, ends assumed
# Constant ends, left off below: GGGAGUUCUACAGUCCGACGAUC … CAACAGAGGAUUGAGCAUCA
# Target sequence (chain): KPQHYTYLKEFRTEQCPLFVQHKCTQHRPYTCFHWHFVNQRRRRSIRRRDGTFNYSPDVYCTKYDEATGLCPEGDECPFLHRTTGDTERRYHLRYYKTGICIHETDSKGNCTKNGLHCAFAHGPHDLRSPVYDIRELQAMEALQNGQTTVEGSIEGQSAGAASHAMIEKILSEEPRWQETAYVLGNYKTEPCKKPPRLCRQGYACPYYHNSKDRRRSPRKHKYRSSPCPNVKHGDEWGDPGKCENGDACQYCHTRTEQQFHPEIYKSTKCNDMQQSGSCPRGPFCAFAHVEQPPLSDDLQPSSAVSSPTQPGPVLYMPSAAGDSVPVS
Strand,bound/input enrichment [ratio]
CAGAUGCUGCAUAACAUGAAGGGACAGUUUGCUGAGCAUCUUCUUGGAGCUGGAUUUGUAAGCAGUAGAAGUCCCAAAGAUCCAAAAGCUAAUAUAAAUUCAGAUAAUGAGAAGAUAAUU,0.141
GAUGGGGACCAAAGGCAUGAGGCUAAGUCCCCGAGUCCCAAAGAAAGCAAGAAGAGGAAGUUGGAGGGGAACAGGCAGGAGCAGGUCCCAGGGGAGCCAGAUCCUCAGGGUGUCUCUGAG,0.223
UGUCAUUAAAAUUAAGGUUUAUAUUGUGAAGCUUUUUUGAAAUUUUACUUUUUUUUGAGAGUUUUGCUCUGUCACCCAGGCUGGAGUGAGGUGGUACAAUCUCGGCUCACUGCAACCUCC,0.498
CCCAUAUUACAUGGAUUAUGUACAUUUGGAUUUUCUGCCAGGCGUGUGUUACAGCAGUUUGCAGAUAAUGAUGUGUCAAGAUUCAAGGCAAUUAAGGCUCGUUUUGCAAAACCAGUAUAU,0.152
GCCGCCCAGGCAGGAGCAUCAGCCAGCGAUACCUGGAGUCUGCAGAAACCUCGCCCGCACUUUGCAACAAAGGCAGCCAGCUAGUCAGCGAGGACCUCUGCAAGCCAAAAAAUGUCGUCC,0.0853
UAUAAUUUCAUACAGGAUUCAAUGUUGGAUUUUGAAAAUCAGACGCUUGAUCCUGCCAUUGUAUCCGCACAGCCUAUGAACCCUACCCAGAACAUGGAUAUGCCUCAGCUGGUUUGCCCU,0.191
CGGGAAUUCAUGAUCAAAACCCGCCGUAGGAAGGGCCUCAGUGAAGAUGUGAGCAUCAGCAAAUUCUUCGAUGAUCCUAUGUUGCUGGAACUUGCCAAACAGGAUGUUGUGCUCAAUUAC,0.172
AGGAUUAACAAUGGACAACACAAAGCCCAGUCUUACUAUUUAUAUGUACAGUAUUUGGUGAUAGAGAGCAAAGGAAAAACACAUCAGAACAGUUGCCUUAACACUGAAAAACAUACCCUG,0.151
AUGAUGAAAGGAGAAUUUUAUGUCAUUGAAUAUGCUGCUUGUGACGCUACUUACAAUGAAAUAGUCACAUUUGAACGACUUCGGCCUGUCAAUCAAAAUAAAACUGUCAAAAAAAAUACC,0.204
AAUAUUAAAGAAGCUGCAAGGUGGAUGGAUGAGGCCCAGGCCUUGGACACAGCAGACAGAUUUAUCAACUCCAAAUGUGCAAAAUACAUGCUAAAAGCCAACCUGAUUAAAGAAGCUGAA,0.18
AAGAAAGACCAUAUUAAACUUACAUGUUUGAGGAUUGCGUCACCUUGUCUCCUGUACAAGCAGUUUCUCUGUUCGGUGAUCAAUGUCACUCACAGGAACUUAAGUAACUAACGAAAUGAG,0.207

# Study 4 — method: protein binding microarray; form: double-stranded DNA, one strand shown; matrix: in vitro; tested at: not given; relative to: not given; reading: higher = stronger binding
# Target: Histone acetyltransferase KAT6A, winged helix 1, GST fusion (KAT6A, Homo sapiens, UniProt Q92794, residues 1-85)
# Setting: 8-mer, flanks averaged, mean of 2 arrays, mostly near background
# Residues (chain): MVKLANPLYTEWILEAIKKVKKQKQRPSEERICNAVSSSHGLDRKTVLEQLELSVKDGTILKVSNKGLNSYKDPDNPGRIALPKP
Strand,E-score
CGCTCTGC,0.187
ATGAACAT,-0.124
AGCTCGAA,-0.157
GCGGATAC,0.317
GCAGCTAC,-0.053
ATTTGCTG,-0.126
ATTGCCAG,-0.168
AAGCATAA,-0.134
CTAGACGC,0.0607
AAACAGCG,0.0587
AAGTGGGC,-0.179
ATCACCCC,-0.0964
TTCAGGAA,-0.235
ACTCAGCC,-0.0767
CCGGTTGC,0.257
CCTCCTGA,-0.153
GGAAGGTA,0.154
ACCTCACG,-0.0803
ATCATGCA,-0.0949
GGACTCAC,0.0316
CTTGATAA,-0.15
CAAAATCC,-0.0952

# Repeated from above (study 2):
Strand,fitted relative affinity [z-score]
TTAGGTTTCCAACTGCTTTAGTGCTAG,1.01
CGTAAGCAAAAATGATTGGTGTGCTAG,-0.431
GACGATTTCGGGTTTCGAGGCGTGCTA,4.94
GACGGTTTCAACTATCGGGACGTGCTA,0.792
GACGGTTTCCTTATCCTGAGGTGCTAG,2.61
GACCATCTCAGTCTCGAGACGTGCTAG,0.487
GACGGTATGGGGTATCGGGACGTGCTA,-0.442
TCATGTCTGTGTCACAGACTGTGCTAG,0.816
GACGGTATCGGTCTCAGGACGTGCTAG,0.287
TTGGATCTCAGTCTCGATTAGTGCTAG,0.753
GACGGTATCGTACTGCTGACGTGCTAG,0.368
